{"data": "Experimental data gathered from unrelated publications", "note": "Numbered parts are unrelated; each lists some results of a single study.", "UniProt Q15746, sequence (whole entry, looked up)": "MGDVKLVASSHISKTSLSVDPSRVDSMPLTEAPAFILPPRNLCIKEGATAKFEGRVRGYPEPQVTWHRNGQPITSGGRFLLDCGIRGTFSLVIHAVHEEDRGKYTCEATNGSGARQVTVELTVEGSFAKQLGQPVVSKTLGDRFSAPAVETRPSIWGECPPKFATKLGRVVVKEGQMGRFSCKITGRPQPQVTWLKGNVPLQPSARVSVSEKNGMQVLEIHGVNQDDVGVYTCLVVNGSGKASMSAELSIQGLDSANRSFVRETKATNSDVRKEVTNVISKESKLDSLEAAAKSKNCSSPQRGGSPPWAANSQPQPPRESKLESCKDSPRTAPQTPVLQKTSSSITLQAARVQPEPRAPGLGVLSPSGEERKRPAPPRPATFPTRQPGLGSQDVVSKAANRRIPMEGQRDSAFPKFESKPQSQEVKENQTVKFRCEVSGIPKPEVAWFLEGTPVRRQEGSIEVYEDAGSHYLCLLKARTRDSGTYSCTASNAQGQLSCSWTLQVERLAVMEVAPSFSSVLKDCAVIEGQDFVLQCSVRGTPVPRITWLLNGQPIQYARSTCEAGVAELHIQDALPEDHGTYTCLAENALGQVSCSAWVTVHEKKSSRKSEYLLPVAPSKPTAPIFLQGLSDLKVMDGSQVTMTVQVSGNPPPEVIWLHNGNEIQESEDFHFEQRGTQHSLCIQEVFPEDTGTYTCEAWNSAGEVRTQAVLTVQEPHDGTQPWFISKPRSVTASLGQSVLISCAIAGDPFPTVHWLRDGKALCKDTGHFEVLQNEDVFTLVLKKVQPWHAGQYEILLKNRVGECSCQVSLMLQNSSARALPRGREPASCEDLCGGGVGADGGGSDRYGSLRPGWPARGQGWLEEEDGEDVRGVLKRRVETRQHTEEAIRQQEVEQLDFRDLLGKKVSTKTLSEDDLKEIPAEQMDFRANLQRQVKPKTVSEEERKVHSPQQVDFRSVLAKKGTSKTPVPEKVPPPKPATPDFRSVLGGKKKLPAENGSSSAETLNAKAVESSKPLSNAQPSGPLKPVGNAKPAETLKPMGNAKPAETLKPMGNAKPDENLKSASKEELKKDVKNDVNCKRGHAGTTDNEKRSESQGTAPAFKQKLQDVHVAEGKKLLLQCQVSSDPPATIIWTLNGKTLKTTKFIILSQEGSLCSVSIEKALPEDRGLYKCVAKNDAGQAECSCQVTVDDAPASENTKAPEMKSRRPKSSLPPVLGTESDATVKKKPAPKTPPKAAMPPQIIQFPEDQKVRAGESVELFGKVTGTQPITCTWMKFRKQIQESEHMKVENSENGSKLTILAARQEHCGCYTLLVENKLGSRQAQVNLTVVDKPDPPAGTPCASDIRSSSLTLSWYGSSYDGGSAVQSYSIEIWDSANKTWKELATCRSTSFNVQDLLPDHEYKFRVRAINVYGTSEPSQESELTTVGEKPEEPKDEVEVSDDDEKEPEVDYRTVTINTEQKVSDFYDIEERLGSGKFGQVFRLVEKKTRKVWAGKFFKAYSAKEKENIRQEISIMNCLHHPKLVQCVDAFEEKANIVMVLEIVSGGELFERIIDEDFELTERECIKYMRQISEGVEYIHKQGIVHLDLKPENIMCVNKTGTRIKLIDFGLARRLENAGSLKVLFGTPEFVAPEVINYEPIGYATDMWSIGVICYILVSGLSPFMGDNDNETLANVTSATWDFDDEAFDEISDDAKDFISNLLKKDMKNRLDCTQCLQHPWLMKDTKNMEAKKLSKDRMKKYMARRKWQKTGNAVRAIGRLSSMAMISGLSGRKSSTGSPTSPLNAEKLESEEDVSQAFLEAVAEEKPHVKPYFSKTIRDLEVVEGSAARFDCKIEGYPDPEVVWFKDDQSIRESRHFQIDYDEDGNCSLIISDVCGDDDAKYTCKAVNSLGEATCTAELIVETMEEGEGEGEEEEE", "UniProt P49759, sequence (whole entry, looked up)": "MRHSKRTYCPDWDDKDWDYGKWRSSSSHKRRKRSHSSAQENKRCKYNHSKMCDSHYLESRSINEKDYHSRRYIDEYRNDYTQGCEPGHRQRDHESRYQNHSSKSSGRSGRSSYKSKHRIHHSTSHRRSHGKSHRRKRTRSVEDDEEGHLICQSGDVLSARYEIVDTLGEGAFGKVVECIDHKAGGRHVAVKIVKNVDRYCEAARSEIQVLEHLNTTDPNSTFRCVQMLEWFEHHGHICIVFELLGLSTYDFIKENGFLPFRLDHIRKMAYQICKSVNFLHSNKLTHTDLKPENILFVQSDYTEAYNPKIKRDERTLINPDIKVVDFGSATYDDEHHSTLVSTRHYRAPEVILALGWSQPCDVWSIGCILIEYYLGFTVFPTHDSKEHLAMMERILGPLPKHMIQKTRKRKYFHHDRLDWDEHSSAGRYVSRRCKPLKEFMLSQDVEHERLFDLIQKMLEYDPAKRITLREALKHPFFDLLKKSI"}
{"data": "Study 1", "target": "RNA binding protein fox-1 homolog 2, RRM domain, GST-SBP tag (RBFOX2, Homo sapiens, UniProt O43251-10, residues 100-194)", "method": "RNA Bind-n-Seq", "form": "RNA", "medium": "in vitro", "concentration": "365 nM", "setting": "natural RNA segment, single round, ends assumed", "relative to": "no-protein control", "reading": "higher = stronger binding", "all sequences stand within": "GGGAGUUCUACAGUCCGACGAUC … UGGAAUUCUCGGGUGCCAA", "Target sequence (chain)": "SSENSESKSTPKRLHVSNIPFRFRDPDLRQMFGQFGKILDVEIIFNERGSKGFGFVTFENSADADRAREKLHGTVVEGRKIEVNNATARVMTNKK"}
{"Oligonucleotide": "GGUUUUGGUCUGGGAGGGUUUUGUUUGUUGGGUUUUUUUAAAAAAAAAUGACAAUGAAGAGACACUUUGACAUUUCCUACCUUUUGAGGACUUGAUCCUUCUCCAGGAAG", "RBNS enrichment (R)": 0.32}
{"Oligonucleotide": "GCAAGAGCCAGUGCCUGACUGAGGCCUUCCUGUGUUGUGGCCUUCCCCCUCCAUCACCCCCAAGACCCCUCUUCUCCCUCUUCUUAGCCUGCUGUGUGAGAGAGGAGCCA", "RBNS enrichment (R)": 1.31}
{"Oligonucleotide": "AUGAAUAAUGCCUGACAUUCAACAAUUGUGGAAAUAUGUUGGUAUGUUGCUGAACAUACAUACACCUCCGAAAUGCCAGUUCUGCAUUCUACACAUAUGCUUUCUGGCAG", "RBNS enrichment (R)": 1.85}
{"Oligonucleotide": "AUUUUAAAAAAUGGUCACGUUUGGUGCUUCUCAGAUUUCUGAGGAAAUUGCUUUGUAUUGUAUAUUACAAUGAUCACCGACUGAAAAUAUUGUUUUACAAUAGUUCUGUG", "RBNS enrichment (R)": 0.369}
{"Oligonucleotide": "GGACUACACUGUUGACCUACCCAUGUGACAGUUGUUUUGUUAGAUGGAGAUGUUGCGUUACUAUGGAGCUUACAUGAAAUGGGUAGCAUAUAGUUAAAGGUCGUGACAAA", "RBNS enrichment (R)": 0.582}
{"Oligonucleotide": "GCAAAUAUGGCCCUAGAAACAAGUGAUAUGGAAUUUACUUGGUGAAUAAGUUAUAAAUUCCCACAGAAGAAAAAUGUGAAAGACUGGGUGCUAGACAAGAAGGAAGCAGG", "RBNS enrichment (R)": 1.14}
{"Oligonucleotide": "UGCCGUGCUUUCCUCCAGUUAUCCUUUGCAUUAACUACGUGGGAACUCUUGCAGGCUAUAUAUGUGAAGAAUAGUUGUGAUGUAGAUGGAAAGAAAAUGUAUUAUUGUGU", "RBNS enrichment (R)": 1.44}
{"Oligonucleotide": "UUAUCUUAGUGUGCACUUGAUUGUGAGUUUUAAGAUUAUGGUUUUAGGAUUUCUUUUAUUUUUUGUCUUUUAAAUUGUUCUUUAAUGGAUUUUAAAUGUCUGUAUCUAAU", "RBNS enrichment (R)": 0.847}
{"data": "Study 2", "target": "Cyclin-dependent kinase 2, with cyclin A (CDK2, Homo sapiens, UniProt P24941)", "observed": "enzyme activity", "mode": "inhibitor", "concentration": "0.5 µM", "relative to": "control"}
{"SMILES": "Ic1cccc(CSc2nnc(-c3ccncc3)o2)c1", "remaining activity [%]": 100}
{"SMILES": "COc1cc2ncnc(Nc3ccc(O)c(Br)c3)c2cc1OC", "remaining activity [%]": 88.7}
{"SMILES": "Cn1nc2c3c(cccc31)C(=O)c1ccccc1-2", "remaining activity [%]": 105}
{"SMILES": "N#C/C(=C\\c1ccc(O)c(O)c1)C(=O)NCc1ccccc1", "remaining activity [%]": 99.2}
{"SMILES": "C[C@@H]1CCN(C(=O)CC#N)C[C@@H]1N(C)c1ncnc2[nH]ccc12", "remaining activity [%]": 89.5}
{"SMILES": "c1ccc(-c2cnc(Nc3ccc(OCCN4CCCC4)cc3)s2)cc1", "remaining activity [%]": 85.2}
{"SMILES": "O=c1cc(-c2cccc3c2Sc2ccccc2S3)oc(N2CCOCC2)c1", "remaining activity [%]": 101}
{"SMILES": "c1ccc(-c2[nH]ncc2-c2ccnc3ccccc23)nc1", "remaining activity [%]": 98.7}
{"SMILES": "Cc1nc2cc3nc(-c4cccs4)cnc3cc2n1C", "remaining activity [%]": 104}
{"SMILES": "Cc1cc2ncc(-c3ccccc3)nc2cc1C", "remaining activity [%]": 99.3}
{"data": "Study 3", "Compound": "CC(=O)C1=C(C)N(c2cccc(C(F)(F)F)c2)C(=O)N[C@@H]1c1ccc(C#N)nc1", "observed": "cell-free assay", "method": "competition with immobilised ligand", "concentration": "1 µM"}
{"target": "MYLK (Homo sapiens, UniProt Q15746)", "remaining binding [%]": 83.8}
{"target": "CLK1 (Homo sapiens, UniProt P49759)", "remaining binding [%]": 100}
{"target": "DYRK1A (Homo sapiens, UniProt Q13627)", "remaining binding [%]": 100}
{"data": "Study 4", "target": "Histone acetyltransferase KAT6A, both winged helices, GST fusion (KAT6A, Homo sapiens, UniProt Q92794, residues 1-181)", "method": "protein binding microarray", "form": "double-stranded DNA, one strand shown", "medium": "in vitro", "concentration": "not given", "setting": "8-mer, flanks averaged, mean of 2 arrays, mostly near background", "relative to": "not given", "reading": "higher = stronger binding", "Construct (chain)": "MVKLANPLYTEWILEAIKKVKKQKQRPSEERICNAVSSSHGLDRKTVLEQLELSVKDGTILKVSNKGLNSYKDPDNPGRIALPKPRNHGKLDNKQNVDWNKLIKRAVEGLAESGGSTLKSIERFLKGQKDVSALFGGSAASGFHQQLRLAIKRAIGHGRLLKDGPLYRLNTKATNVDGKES"}
{"Oligonucleotide": "TGTGCTAA", "E-score": 0.0399}
{"Oligonucleotide": "AGTTCCTA", "E-score": -0.135}
{"Oligonucleotide": "ACACTCGA", "E-score": 0.0073}
{"Oligonucleotide": "CCTGTACA", "E-score": 0.0134}
{"Oligonucleotide": "ACAAACAG", "E-score": -0.0892}
{"Oligonucleotide": "GACATACA", "E-score": 0.115}
{"Oligonucleotide": "ATTTGCGC", "E-score": 0.181}
{"Oligonucleotide": "CGTATCAG", "E-score": 0.049}
{"note": "Repeated from above (study 1):"}
{"Oligonucleotide": "UUAUCUUAGUGUGCACUUGAUUGUGAGUUUUAAGAUUAUGGUUUUAGGAUUUCUUUUAUUUUUUGUCUUUUAAAUUGUUCUUUAAUGGAUUUUAAAUGUCUGUAUCUAAU", "RBNS enrichment (R)": 0.847}
{"Oligonucleotide": "GGACUACACUGUUGACCUACCCAUGUGACAGUUGUUUUGUUAGAUGGAGAUGUUGCGUUACUAUGGAGCUUACAUGAAAUGGGUAGCAUAUAGUUAAAGGUCGUGACAAA", "RBNS enrichment (R)": 0.582}
{"Oligonucleotide": "GGUUUUGGUCUGGGAGGGUUUUGUUUGUUGGGUUUUUUUAAAAAAAAAUGACAAUGAAGAGACACUUUGACAUUUCCUACCUUUUGAGGACUUGAUCCUUCUCCAGGAAG", "RBNS enrichment (R)": 0.32}
